Measurements from different studies.
Protocols differ between the studies behind these lines. Numbers after ± are the reported error.

Structure (SMILES)	test system	setting	scale	fluorescence quantum yield
NCCC(=O)N1Cc2ccccc2-c2c(nnn2-c2nc3c(N)ncnc3n2C2OC(CO)C(O)C2O)-c2ccccc21 (mixture of isomers)	methanol	–	baseline: quinine sulfate	0.017
CCn1cc(/C=C/c2sc3ccccc3[n+]2CC)c2ccccc21	methanol	–	baseline: fluorescein	0.033
Cc1ccc(C(C)C)cc1.[C-]#[O+].[C-]#[O+].[C-]#[O+].[Cl-].[Cl-].[Cl-].[Re+].[Ru+2].c1cnc(-c2ncccn2)nc1	10% DMSO	–	baseline: quinine sulfate	0.0095
COc1cc(OC)cc(C2=C3C(C)=C(I)C(/C=C/c4c[nH]c5ccc([N+](=O)[O-])cc45)=[N+]3[B-](F)(F)n3c(/C=C/c4c[nH]c5ccc([N+](=O)[O-])cc45)c(I)c(C)c32)c1	THF	–	baseline: methylene blue	0.03
CC1(C)C(/C=C/C2=C(Cl)C(=C/C=C3/N(CCCCCC(=O)O)c4ccccc4C3(C)C)/C[N+](C)(C)C2)=[N+](CCCCCC(=O)O)c2ccccc21	10 mM PBS	pH 7.4, excitation 730 nm	–	0.051
COc1ccc2cc(-c3ccc(-c4ccc(C)cn4)nc3)oc2c1	dioxane	together with: quinine bisulfate reference	–	0.78
CC1=CC(C)=[N+]2C1=C(c1ccc(C[P+](c3ccccc3)(c3ccccc3)c3ccccc3)cc1)c1c(C)cc(C)n1[B-]2(F)F	PBS	10 µM, pH 7.4, 298 K, together with: fluorescein standard	–	0.59
COc1ccc(/C=C/c2ccc(-c3ccc(C)cn3)nc2)cc1	aqueous HEPES buffer	pH 7.4, zinc-free ligand, together with: quinine bisulfate reference	–	0.05
O=c1[nH]c(=O)n(C2OC(CO)C(O)C2O)cc1-n1nnc2c1CCC1C(CO)C1CC2 (mixture of isomers)	–	–	–	1.1%
COC(=O)c1cc(=O)n(C)c2c(-c3ccc(OC)cc3)csc12	dichloromethane	10 µM	–	0%
CC1=[N+]2C(=C(CCl)c3ccc(C)n3[B-]2(F)F)C=C1	PBS/DMSO 90:10 v/v	about 1 µM, pH 8.0	–	26.1 ± 0.8%
COc1cc(OC)cc(C2=C3C(C)=C(I)C(C)=[N+]3[B-](F)(F)n3c(/C=C/c4cccs4)c(I)c(C)c32)c1	dichloromethane	–	baseline: methylene blue	0.4
OC(Cc1cc(-c2ccc(C(O)C(F)(F)F)s2)sc1-c1ccc(-c2sc(-c3ccc(C(O)C(F)(F)F)s3)cc2CC(O)C(F)(F)F)s1)C(F)(F)F (stereo not drawn)	DMSO	–	baseline: fluorescein in NaOH	0.27
Cc1c(C)c(C)[c-](C)c1C.[C-]#[O+].[C-]#[O+].[C-]#[O+].[Cl-].[Cl-].[Cl-].[Ir+3].[Re+].c1cnc(-c2ncccn2)nc1	10% DMSO	–	baseline: quinine sulfate	0.0077
CCOC(=O)c1[nH]c(C)c(/C=C/C2=[N+]3C(=C(c4cc(OC)cc(OC)c4)c4c(C)c(I)c(/C=C/c5c(C)[nH]c(C(=O)OCC)c5C)n4[B-]3(F)F)C(C)=C2I)c1C	dichloromethane	–	baseline: methylene blue	0.1
CC1=CC(C)=[N+]2C1=C(c1ccc(C[P+](C3CCCCC3)(C3CCCCC3)C3CCCCC3)cc1)c1c(C)cc(C)n1[B-]2(F)F	PBS	10 µM, pH 7.4, 298 K, together with: fluorescein standard	–	0.6
CCCCCCCCCCCCCCCC(=O)OCC(COP(=O)([O-])OCC[N+](C)(C)Cc1cn(-c2cc3ccc(OC(=O)Oc4ccc(CCC(=O)C(F)(F)F)cc4)cc3oc2=O)nn1)OC(=O)CCCCCCCCCCCCCCC (stereo not drawn)	ethanol	–	baseline: coumarin 343	0.09

Structure (SMILES)	test system	setting	scale	fluorescence quantum yield
COCCOCCOCCOCCOCCOCCOCCOCCOCCOCCOCCOCCNC(=O)CCC1(Cc2ccccc2)c2ccccc2-c2ccc(-c3sc(-c4c5c(c(-c6sc(-c7ccc8c(c7)C(CCC(=O)NCCOCCOCCOCCOCCOCCOCCOCCOCCOCCOCCOCCOC)(Cc7ccccc7)c7ccccc7-8)c7c6OCCO7)c6nsnc46)N=S=N5)c4c3OCCO4)cc21 (stereo not drawn)	aqueous solution	–	baseline: IR-26 in 1,2-dichloroethane	0.82%
CCOC(=O)c1[nH]c(C)c(/C=C/c2c(I)c(C)c3n2[B-](F)(F)[N+]2=C(C)C(I)=C(C)C2=C3c2cc(OC)cc(OC)c2)c1C	dichloromethane	–	baseline: methylene blue	0.21
NCCC(=O)N1Cc2ccccc2-c2c(nnn2-c2nc(N)c3ncn(C4OC(CO)C(O)C4O)c3n2)-c2ccccc21 (mixture of isomers)	methanol	–	baseline: quinine sulfate	0.106
COc1cc(/C=C2\SC(=S)NC2=O)cc(OC)c1OC	PBS	free ligand	–	0.05%
CCn1cc(/C=C/c2ccc3ccccc3[n+]2CC)c2ccccc21	DMSO	–	baseline: fluorescein	0.006
COc1cc(OC)cc(C2=C3C(C)=C(I)C(/C=C/c4cccs4)=[N+]3[B-](F)(F)n3c(/C=C/c4cccs4)c(I)c(C)c32)c1	THF	–	baseline: methylene blue	0.01
CC1=CC(C)=[N+]2C1=C(CCCC(=O)NCC1CCC(C(=O)NC(Cc3ccc4ccccc4c3)C(=O)NCCCCC(NC(=O)NC(CCC(=O)O)C(=O)O)C(=O)O)CC1)c1c(C)cc(C)n1[B-]2(F)F (stereo not drawn)	acetonitrile/water	–	–	81 ± 5%
Nc1ncnc2c1nc(-n1nnc3c1CCC1C(CO)C1CC3)n2C1OC(CO)C(O)C1O (mixture of isomers)	methanol	–	baseline: quinine sulfate	0.006
Cc1ccc(-c2ccc(-c3cc4sccc4o3)cn2)nc1	toluene	together with: quinine bisulfate reference	–	0.58
Nc1ncnc2c1nc(-n1nnc3c1CCC1C(CO)C1CC3)n2C1CC(O)C(CO)O1 (mixture of isomers)	methanol	–	baseline: quinine sulfate	0.014
CCN(CC)C(=O)c1ccc(-c2c3ccc(=[N+](C)C)cc-3sc3cc4c(cc23)C(C)(C)CCN4C)s1	methanol	together with: excitation 532 nm	–	0.09 ± 0.01
CC1=CC(C)=[N+]2C1=C(CCCC(=O)NCCCCCC(=O)NCCCC[C@H](NC(=O)N[C@@H](CCC(=O)O)C(=O)O)C(=O)O)c1c(C)cc(C)n1[B-]2(F)F	acetonitrile/water	–	–	86 ± 5%
COCCOCCOCCOCCC(=O)NCc1cc(CNC(=O)CCOCCOCCOCCOC)cc(-c2cc3cc4nc(c(-c5ccc(CCC(=O)O)cc5)c5[nH]c(cc6nc(c(OC)c2[nH]3)CC6(C)C)cc5-c2cc(CNC(=O)CCOCCOCCOCCOC)cc(CNC(=O)CCOCCOCCOCCOC)c2)CC4(C)C)c1	water with 5% DMF	room temperature	–	0.098
CN1CCC(C)(C)c2cc3c(-c4ccc(C(=O)N5CCCCC5)s4)c4ccc(=[N+](C)C)cc-4sc3cc21	methanol	together with: excitation 532 nm	–	0.09 ± 0.01
COc1cc(OC)cc(C2=C3C(C)=C(I)C(/C=C/c4c[nH]c5ccccc45)=[N+]3[B-](F)(F)n3c(/C=C/c4c[nH]c5ccccc45)c(I)c(C)c32)c1	dichloromethane	–	baseline: methylene blue	0.15
COCCOCCOCCOCCOCCOCCOCCOCCC(=O)NCCCc1cc2cc3nc(cc4[nH]c(cc5nc(c(OC)c1[nH]2)C(=O)C5(C)C)cc4CCc1ccc(C(=O)O)cc1)CC3(C)C	water with 5% DMF	room temperature	–	0.075

Excerpt of the above:
Structure (SMILES)	test system	setting	scale	fluorescence quantum yield
O=c1[nH]c(=O)n(C2OC(CO)C(O)C2O)cc1-n1nnc2c1CCC1C(CO)C1CC2 (mixture of isomers)	–	–	–	1.1%
CN1CCC(C)(C)c2cc3c(-c4ccc(C(=O)N5CCCCC5)s4)c4ccc(=[N+](C)C)cc-4sc3cc21	methanol	together with: excitation 532 nm	–	0.09 ± 0.01
COc1cc(OC)cc(C2=C3C(C)=C(I)C(/C=C/c4cccs4)=[N+]3[B-](F)(F)n3c(/C=C/c4cccs4)c(I)c(C)c32)c1	THF	–	baseline: methylene blue	0.01
CC1(C)C(/C=C/C2=C(Cl)C(=C/C=C3/N(CCCCCC(=O)O)c4ccccc4C3(C)C)/C[N+](C)(C)C2)=[N+](CCCCCC(=O)O)c2ccccc21	10 mM PBS	pH 7.4, excitation 730 nm	–	0.051
CCn1cc(/C=C/c2ccc3ccccc3[n+]2CC)c2ccccc21	DMSO	–	baseline: fluorescein	0.006
